Published values gathered from unrelated publications.
Each line is one published result; not all experiments were run side by side.

| Compound | species | matrix | route | dose | notes | half-life |
| --- | --- | --- | --- | --- | --- | --- |
| O=S(=O)(N[C@H]1CCO[C@@H](C2c3ccc(F)cc3CCc3cc(F)ccc32)C1)c1ccc(OC(F)(F)F)cc1 | mouse | plasma | oral | 30 mg/kg |  | 5.5 h |
| CC(C)NC(=O)NC1CC=C(c2cc3c(Nc4cc5ncsc5cc4F)ncnc3s2)CC1 (racemic) | mouse | plasma | oral | 10 mg/kg |  | 4.35 h |
| Cc1cc(NC(=O)[C@H](O)c2cc(F)cc(F)c2)ccc1-c1cnc(N)c(C(=O)NC(C)C)c1 | female nude mouse | plasma | oral | 50 mg/kg | single dose | 1.9 h |
| COc1cc(OCCN2CCOCC2)cnc1-c1nc2cc(OC(F)(F)F)ccc2[nH]1 | mouse | plasma | intraperitoneal | 100 mg/kg |  | 4.05 h |
| O=C(O)c1ccc(/C=C2\SC(=S)N(Cc3cccc(C(F)(F)F)c3)C2=O)cc1 | C57BL/6 mouse | blood | oral | 10 mg/kg |  | 5.1 h |
| COc1cccc2c(N3CCC(CCP(=O)(O)O)CC3)ncnc12 | female C57BL/6 mouse | serum | subcutaneous | 50 mg/kg |  | 1.5 h |
| COC1C(c2ccc(Cl)c(Cc3ccc(OC4CCOC4)cc3)c2)OC(CO)C(O)C1O (stereo not shown) | CD-1 mouse | plasma | intravenous | 5 mg/kg |  | 2.47 h |
| C[C@@]1(c2nc(-c3ccc(F)c4cn[nH]c34)no2)CCCN(C(=O)c2ccc(F)nc2)C1 | male C57BL/6 mouse | plasma | intraperitoneal | 20 mg/kg |  | 2.16 h |
| O=C(NCCCCc1ccccc1)n1c(=O)oc2cc(-c3ccc(F)cc3)ccc21 | CD-1 mouse | plasma | intravenous | 1 mg/kg |  | 1.2 h |
| O=C(C1CC1)N1CCC=C(c2cc3c(Nc4cc5ncsc5cc4F)ncnc3s2)C1 | mouse | plasma | intravenous | 10 mg/kg |  | 9.1 h |
| COc1ccc2nc(NC(c3ccc(O)cc3)P(=O)(OC)OC)sc2c1 (stereo not shown) | mouse | plasma | intravenous | 10 mg/kg |  | 5.5 h |
| O=C(Nc1ccc(C(F)F)cc1)[C@H](CC1CCCCC1)Nc1nn2c(=O)ccnc2s1 | female nude mouse | plasma | oral | 10 mg/kg |  | 0.95 h |
| O=S(=O)(N[C@H]1CCO[C@@H](C2c3ccccc3CCc3ccccc32)C1)c1ccc(OC(F)(F)F)cc1 | mouse | plasma | oral | 30 mg/kg |  | 4.3 h |
| N#CCCC1CCN(C(=S)c2ccc(-c3cc(Cl)ccc3Cl)o2)CC1 | male BALB/c mouse | plasma | intravenous | 5 mg/kg |  | 1.94 h |
| O=S(=O)(N[C@H]1CCC[C@@H](N2c3ccccc3CCc3ccccc32)[C@@H]1O)c1ccc(OC(F)(F)F)cc1 | mouse | plasma | intravenous | 1 mg/kg |  | 2.1 h |
| Cn1ccc(-c2cc(Cl)c(Cl)c3[nH]c4c(c23)CN(C(=O)CO)CC4)n1 | C57BL/6 mouse | blood | oral | 100 mg/kg |  | 6.44 h |
| COC(=O)C1=CNC=C(C(=O)OC)C1c1ccc(F)c(C(F)(F)F)c1 | male C57BL/6 mouse | plasma | oral | 50 mg/kg |  | 2.31 h |
| CCC1C(COc2nccc3cc(C(N)=O)c(OC)cc23)NC(=O)C1F (stereo not shown) | CD-1 mouse | plasma | intravenous | 1 mg/kg |  | 13.6 h |
| OCCn1nc(-c2ccccc2)c2c(Cl)c(-c3ccccc3)nnc21 | mouse | plasma | intraperitoneal | 10 mg/kg |  | 0.267 h |
| CCC(=O)NC1CC=C(c2cc3c(Nc4cc5ncsc5cc4F)ncnc3s2)CC1 (racemic) | mouse | plasma | intravenous | 10 mg/kg |  | 4.57 h |

| Compound | species | matrix | route | dose | notes | half-life |
| --- | --- | --- | --- | --- | --- | --- |
| COc1ccccc1/C=C/CNCC(O)COc1ccc(Nc2ccccc2)cc1 (racemic) | mouse | plasma | oral | 10 mg/kg |  | 0.57 h |
| Oc1ccc([C@@H]2Oc3ccc(O)cc3[C@@H]3CCC[C@@H]32)cc1 | male C57BL/6 mouse | plasma | intravenous | 1 mg/kg |  | 1.8 h |
| CC(C)(O)Cn1nc(-c2ccccc2)c2c(Cl)c(-c3ccccc3)nnc21 | mouse | plasma | intraperitoneal | 3 mg/kg |  | 1.57 h |
| CC(=O)N1CCC=C(c2cc3c(Nc4cc5ncsc5cc4F)ncnc3s2)C1 | mouse | plasma | intravenous | 10 mg/kg |  | 8.26 h |
| CC(C)[C@@H](C)Nc1nc(-c2cccs2)nc(Cl)c1-c1c(F)cc(F)cc1F | mouse | plasma | intraperitoneal | 2.5 mg/kg |  | 0.48 h |
| Nc1ccc(-c2ccc(F)cc2)cc1NC(=O)C1CCOCC1 | male C57BL/6 mouse | brain | intraperitoneal | 10 mg/kg |  | 0.213 h |
| CCn1cc(-c2cc(Cn3ccnc3)cc3c2CCN([C@H](c2cc(OC)ccn2)C2CC2)C3=O)c(C(F)(F)F)n1 | male CD-1 mouse | plasma | oral | 50 mg/kg |  | 1.5 h |
| Nc1ccc(-c2cc(Cl)c(Cl)c3[nH]c4c(c23)CN(C(=O)CO)CC4)cn1 | C57BL/6 mouse | blood | oral | 20 mg/kg |  | 2.12 h |
| CC[C@H](C)/C=C/C=C/C=C/C(O)=C/C(=O)C(F)(F)Cl | female C57BL/6 mouse | plasma | oral | 25 mg/kg |  | 1.2 h |
| CC(C)(C)c1cnc(CSc2cnc(NC(=O)C3CCN(C(=O)CCCCCCCN4Cc5cc6c(cc5C4)C(=O)N(C4CCC(=O)NC4=O)C6=O)CC3)s2)o1 (stereo not shown) | mouse | plasma | intravenous | 2 mg/kg |  | 0.3 h |
| CCC(=O)N1CCC=C(c2cc3c(Nc4cc5ncsc5cc4F)ncnc3s2)C1 | mouse | plasma | oral | 10 mg/kg |  | 1.79 h |
| C/C(N)=N/C(=N\S(=O)(=O)c1ccc(C(F)(F)F)cc1)N1C[C@H](c2ccccc2)C(c2ccc(Cl)cc2)=N1 | C57BL/6 mouse | kidney | intravenous | 10 mg/kg |  | 3 h |
| OCC1OC(n2cnc3c(NCc4ccc(Br)s4)ncnc32)C(O)C1O (stereo not shown) | male CD-1 mouse | blood | intravenous | 1 mg/kg |  | 1.8 h |
| COc1cnc2cccc(N3CCc4c(cc(Cn5ccnc5)cc4-c4cn(C)nc4C(F)(F)F)C3=O)c2c1 | male CD-1 mouse | plasma | intraperitoneal | 100 mg/kg |  | 2.9 h |
| Cc1cc(NCC(=O)C(C)C)c2nc(N3CCOC[C@H]3C)cc(=O)n2c1 | C57BL/6 mouse | plasma | intraperitoneal | 10 mg/kg | single dose | 0.59 h |
| Cn1c2cc([S+](C)[O-])sc2c2cnn(Cc3cccc(N)c3)c(=O)c21 (stereo not shown) | male BALB/c mouse | plasma | intravenous | 1 mg/kg | single dose | 5.8 h |
| O=C1CCC(N2C(=O)c3ccc(N4CCC(C(=O)N5CCC(CCN6CCC(CNC(=O)c7cccc(-c8noc(C(F)(F)F)n8)c7)(c7nc(-c8ccccc8)cs7)CC6)CC5)CC4)cc3C2=O)C(=O)N1 (stereo not shown) | CD-1 mouse | plasma | intraperitoneal | 30 mg/kg |  | 5.74 h |
| Fc1cncc(-c2ccc3[nH]c4ncnc(N[C@H]5CC[C@H](N6CCOCC6)CC5)c4c3c2)c1 | CD-1 mouse | plasma | oral | 10 mg/kg |  | 1.05 h |
| Cc1cc(NCC(=O)C(C)(C)C)c2nc(N3CCOC[C@H]3C)cc(=O)n2c1 | C57BL/6 mouse | plasma | intraperitoneal | 10 mg/kg | single dose | 0.63 h |
| CC[C@H](C)[C@@H]1NC(=O)[C@@](C)(NC(=O)[C@H](CCCNC(=N)N)NC(=O)[C@H](CC(C)C)NC(=O)[C@]2(C)CCCC=CCCC[C@](C)(NC(C)=O)C(=O)N[C@@H](CC(C)C)C(=O)N[C@@H](CCC(N)=O)C(=O)N2)CCCC=CCCC[C@@](C)(C(=O)N[C@@H](CC(C)C)C(=O)N[C@@H](Cc2ccc3ccccc3c2)C(=O)NCCC(=O)NCCC(N)=O)NC(=O)[C@H](CCCNC(=N)N)NC(=O)[C@H](CCC(N)=O)NC1=O | male BALB/c mouse | plasma | intraperitoneal | 30 mg/kg |  | 9.81 h |

Excerpt of the above:
| Compound | species | matrix | route | dose | notes | half-life |
| --- | --- | --- | --- | --- | --- | --- |
| Cc1cc(NCC(=O)C(C)(C)C)c2nc(N3CCOC[C@H]3C)cc(=O)n2c1 | C57BL/6 mouse | plasma | intraperitoneal | 10 mg/kg | single dose | 0.63 h |
| CC[C@H](C)[C@@H]1NC(=O)[C@@](C)(NC(=O)[C@H](CCCNC(=N)N)NC(=O)[C@H](CC(C)C)NC(=O)[C@]2(C)CCCC=CCCC[C@](C)(NC(C)=O)C(=O)N[C@@H](CC(C)C)C(=O)N[C@@H](CCC(N)=O)C(=O)N2)CCCC=CCCC[C@@](C)(C(=O)N[C@@H](CC(C)C)C(=O)N[C@@H](Cc2ccc3ccccc3c2)C(=O)NCCC(=O)NCCC(N)=O)NC(=O)[C@H](CCCNC(=N)N)NC(=O)[C@H](CCC(N)=O)NC1=O | male BALB/c mouse | plasma | intraperitoneal | 30 mg/kg |  | 9.81 h |
